Measurements gathered from unrelated publications.
Compare with care: the assays were run in different laboratories. ± gives the spread as reported.
PTH1R: Parathyroid hormone/parathyroid hormone-related peptide receptor (PTH1R, Homo sapiens, UniProt Q03431)
UniProt Q03431, sequence (whole entry, looked up): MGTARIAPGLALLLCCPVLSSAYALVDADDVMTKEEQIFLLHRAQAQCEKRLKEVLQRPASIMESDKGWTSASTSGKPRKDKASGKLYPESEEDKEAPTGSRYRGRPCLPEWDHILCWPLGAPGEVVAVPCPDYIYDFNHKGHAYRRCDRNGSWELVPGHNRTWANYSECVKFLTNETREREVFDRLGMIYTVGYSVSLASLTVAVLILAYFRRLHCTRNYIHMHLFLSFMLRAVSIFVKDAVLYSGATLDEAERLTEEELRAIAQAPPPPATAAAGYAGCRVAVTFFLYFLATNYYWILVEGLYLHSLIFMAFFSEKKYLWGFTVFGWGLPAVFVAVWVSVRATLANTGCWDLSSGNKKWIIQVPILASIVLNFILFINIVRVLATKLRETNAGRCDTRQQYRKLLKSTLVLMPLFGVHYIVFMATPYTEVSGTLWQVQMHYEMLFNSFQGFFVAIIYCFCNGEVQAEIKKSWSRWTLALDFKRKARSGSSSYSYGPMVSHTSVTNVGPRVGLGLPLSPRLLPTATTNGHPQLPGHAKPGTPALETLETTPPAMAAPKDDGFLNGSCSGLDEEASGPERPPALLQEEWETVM
NPSR1 N107I: Neuropeptide S receptor (NPSR1, Homo sapiens, UniProt Q6W5P4, N107I)
UniProt Q6W5P4, sequence (whole entry, unmodified, looked up): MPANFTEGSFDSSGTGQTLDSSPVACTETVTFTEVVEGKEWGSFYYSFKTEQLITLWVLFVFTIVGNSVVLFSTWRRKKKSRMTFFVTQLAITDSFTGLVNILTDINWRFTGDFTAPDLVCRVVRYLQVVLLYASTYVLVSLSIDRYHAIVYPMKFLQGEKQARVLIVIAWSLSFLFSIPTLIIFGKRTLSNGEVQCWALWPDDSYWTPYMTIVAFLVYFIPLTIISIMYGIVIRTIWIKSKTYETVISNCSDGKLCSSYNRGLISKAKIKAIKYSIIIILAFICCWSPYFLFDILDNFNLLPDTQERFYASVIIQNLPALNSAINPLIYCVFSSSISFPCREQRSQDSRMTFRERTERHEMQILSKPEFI
FFAR3: Free fatty acid receptor 3 (FFAR3, Homo sapiens, UniProt O14843)
UniProt O14843, sequence (whole entry, looked up): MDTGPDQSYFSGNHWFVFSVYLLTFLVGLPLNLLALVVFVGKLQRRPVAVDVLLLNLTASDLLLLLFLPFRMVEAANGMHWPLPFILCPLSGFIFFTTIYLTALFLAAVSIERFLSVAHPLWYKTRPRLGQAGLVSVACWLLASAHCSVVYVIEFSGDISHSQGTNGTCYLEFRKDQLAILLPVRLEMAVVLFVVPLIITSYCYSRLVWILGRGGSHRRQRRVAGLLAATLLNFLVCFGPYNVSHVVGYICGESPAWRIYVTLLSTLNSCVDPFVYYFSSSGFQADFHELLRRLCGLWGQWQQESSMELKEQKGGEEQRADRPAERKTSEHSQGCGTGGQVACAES
NR1H2 ligand-binding domain: Oxysterols receptor LXR-beta, ligand-binding domain (NR1H2, Homo sapiens, UniProt P55055)
UniProt P55055, sequence (whole entry, looked up): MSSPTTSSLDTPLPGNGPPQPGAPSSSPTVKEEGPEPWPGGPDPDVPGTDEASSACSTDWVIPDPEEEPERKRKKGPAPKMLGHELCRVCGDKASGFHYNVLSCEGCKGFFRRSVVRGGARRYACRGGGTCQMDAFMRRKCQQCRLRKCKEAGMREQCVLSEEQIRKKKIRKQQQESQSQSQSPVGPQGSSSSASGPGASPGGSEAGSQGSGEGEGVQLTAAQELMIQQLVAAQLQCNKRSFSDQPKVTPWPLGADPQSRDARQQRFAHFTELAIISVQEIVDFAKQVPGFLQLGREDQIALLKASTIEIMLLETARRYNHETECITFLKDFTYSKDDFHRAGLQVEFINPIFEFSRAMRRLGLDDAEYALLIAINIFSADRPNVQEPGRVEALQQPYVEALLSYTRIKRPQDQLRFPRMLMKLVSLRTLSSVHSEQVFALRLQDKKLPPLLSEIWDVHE
UniProt P30969, sequence (whole entry, looked up): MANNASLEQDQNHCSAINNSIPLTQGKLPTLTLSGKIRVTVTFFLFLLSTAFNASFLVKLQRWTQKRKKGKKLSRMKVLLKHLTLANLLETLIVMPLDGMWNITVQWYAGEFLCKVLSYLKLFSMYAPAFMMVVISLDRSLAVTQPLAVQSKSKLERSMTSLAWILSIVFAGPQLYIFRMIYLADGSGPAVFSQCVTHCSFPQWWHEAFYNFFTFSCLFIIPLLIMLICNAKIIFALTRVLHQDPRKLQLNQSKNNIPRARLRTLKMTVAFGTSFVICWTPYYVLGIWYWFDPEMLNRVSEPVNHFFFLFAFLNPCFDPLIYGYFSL
UniProt P21761, sequence (whole entry, looked up): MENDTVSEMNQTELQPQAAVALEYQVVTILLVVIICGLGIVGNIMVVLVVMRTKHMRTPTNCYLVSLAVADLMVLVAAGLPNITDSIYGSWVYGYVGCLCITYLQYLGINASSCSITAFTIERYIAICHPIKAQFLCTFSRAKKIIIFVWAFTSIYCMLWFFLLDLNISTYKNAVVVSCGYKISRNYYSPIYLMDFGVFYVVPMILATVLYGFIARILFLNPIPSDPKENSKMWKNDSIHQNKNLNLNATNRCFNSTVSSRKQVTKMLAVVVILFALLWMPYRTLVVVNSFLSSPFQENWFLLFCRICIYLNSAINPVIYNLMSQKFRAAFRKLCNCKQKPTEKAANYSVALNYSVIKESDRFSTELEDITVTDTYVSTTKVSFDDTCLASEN
UniProt P43119, sequence (whole entry, looked up): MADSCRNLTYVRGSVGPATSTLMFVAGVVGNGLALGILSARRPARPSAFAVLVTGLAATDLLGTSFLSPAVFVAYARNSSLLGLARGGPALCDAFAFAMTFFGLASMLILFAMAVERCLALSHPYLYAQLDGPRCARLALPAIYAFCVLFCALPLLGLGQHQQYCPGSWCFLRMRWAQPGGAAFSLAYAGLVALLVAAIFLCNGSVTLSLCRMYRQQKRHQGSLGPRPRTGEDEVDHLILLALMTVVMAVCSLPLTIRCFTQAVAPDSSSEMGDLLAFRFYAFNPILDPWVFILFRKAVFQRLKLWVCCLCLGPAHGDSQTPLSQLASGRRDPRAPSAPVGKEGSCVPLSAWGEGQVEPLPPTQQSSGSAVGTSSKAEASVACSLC
UniProt Q9WUP1, sequence (whole entry, looked up): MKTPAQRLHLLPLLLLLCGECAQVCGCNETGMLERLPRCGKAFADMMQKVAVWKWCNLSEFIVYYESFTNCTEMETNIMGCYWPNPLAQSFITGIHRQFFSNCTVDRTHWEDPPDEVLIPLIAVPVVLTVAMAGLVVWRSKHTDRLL
UniProt Q61143, sequence (whole entry, unmodified, looked up): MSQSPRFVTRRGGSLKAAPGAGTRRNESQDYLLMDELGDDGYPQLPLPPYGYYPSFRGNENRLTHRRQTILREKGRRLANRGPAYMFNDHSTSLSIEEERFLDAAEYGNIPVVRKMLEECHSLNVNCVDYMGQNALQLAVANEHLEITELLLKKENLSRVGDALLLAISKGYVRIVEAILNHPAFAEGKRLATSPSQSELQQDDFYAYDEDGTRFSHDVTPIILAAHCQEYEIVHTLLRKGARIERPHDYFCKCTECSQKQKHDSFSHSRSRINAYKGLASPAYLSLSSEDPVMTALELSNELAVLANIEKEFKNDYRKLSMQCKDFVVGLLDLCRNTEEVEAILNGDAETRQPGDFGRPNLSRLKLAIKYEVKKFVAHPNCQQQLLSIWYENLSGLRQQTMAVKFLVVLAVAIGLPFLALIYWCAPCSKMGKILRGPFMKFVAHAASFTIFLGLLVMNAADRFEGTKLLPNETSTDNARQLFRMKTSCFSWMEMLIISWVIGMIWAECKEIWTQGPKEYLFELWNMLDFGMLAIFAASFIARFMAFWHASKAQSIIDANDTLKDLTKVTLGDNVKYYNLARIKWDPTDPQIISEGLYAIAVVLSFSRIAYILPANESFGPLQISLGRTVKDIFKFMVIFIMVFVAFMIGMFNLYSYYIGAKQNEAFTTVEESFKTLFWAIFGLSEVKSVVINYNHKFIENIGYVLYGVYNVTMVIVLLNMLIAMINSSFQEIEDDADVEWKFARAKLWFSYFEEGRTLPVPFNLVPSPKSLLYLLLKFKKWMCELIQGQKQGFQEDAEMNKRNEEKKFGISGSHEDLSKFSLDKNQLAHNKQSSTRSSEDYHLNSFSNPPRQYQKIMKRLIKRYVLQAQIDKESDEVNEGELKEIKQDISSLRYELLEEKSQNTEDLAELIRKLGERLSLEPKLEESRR
UniProt Q9R1W5, sequence (whole entry, looked up): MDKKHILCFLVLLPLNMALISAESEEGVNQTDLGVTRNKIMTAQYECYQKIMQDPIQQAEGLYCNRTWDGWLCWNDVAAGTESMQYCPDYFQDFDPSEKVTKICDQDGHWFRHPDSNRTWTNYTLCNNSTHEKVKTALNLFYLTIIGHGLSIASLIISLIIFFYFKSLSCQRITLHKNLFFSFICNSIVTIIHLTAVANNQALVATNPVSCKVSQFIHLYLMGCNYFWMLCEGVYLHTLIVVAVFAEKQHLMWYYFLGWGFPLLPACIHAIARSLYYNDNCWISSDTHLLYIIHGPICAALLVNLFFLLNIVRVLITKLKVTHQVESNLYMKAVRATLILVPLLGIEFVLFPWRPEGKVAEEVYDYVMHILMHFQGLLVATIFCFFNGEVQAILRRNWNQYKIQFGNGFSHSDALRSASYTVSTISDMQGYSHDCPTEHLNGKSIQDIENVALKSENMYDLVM
UniProt P47895, sequence (whole entry, looked up): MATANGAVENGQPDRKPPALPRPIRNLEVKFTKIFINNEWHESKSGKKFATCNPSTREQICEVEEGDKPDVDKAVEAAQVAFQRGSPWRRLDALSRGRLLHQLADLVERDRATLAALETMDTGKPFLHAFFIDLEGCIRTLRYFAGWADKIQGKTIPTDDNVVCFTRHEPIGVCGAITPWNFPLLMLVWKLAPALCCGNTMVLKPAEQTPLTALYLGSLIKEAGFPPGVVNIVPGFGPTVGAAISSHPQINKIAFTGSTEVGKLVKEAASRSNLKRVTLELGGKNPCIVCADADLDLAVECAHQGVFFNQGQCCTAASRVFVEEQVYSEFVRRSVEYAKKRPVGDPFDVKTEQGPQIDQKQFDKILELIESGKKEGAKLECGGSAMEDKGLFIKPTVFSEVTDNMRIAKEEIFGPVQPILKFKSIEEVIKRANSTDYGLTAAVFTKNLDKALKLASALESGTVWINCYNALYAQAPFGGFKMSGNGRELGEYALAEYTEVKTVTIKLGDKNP

SMILES	target	assay	test system	conditions	EC50 [µM]
O=C(c1cc2c(s1)CCCCC2)N1CCC(n2c(=O)[nH]c3ccccc32)CC1	Short transient receptor potential channel 6 (Trpc6, Mus musculus, UniProt Q61143, K697R)	channel activation, agonist, whole-cell patch clamp			1.19 ± 0.14
CSCC[C@H](NC(=O)[C@H](CO)NC(=O)[C@H](CC(N)=O)NC(=O)[C@H](CC(C)C)NC(=O)[C@H](CO)NC(=O)[C@H](CCCCN)NC(=O)CNC(=O)[C@H](CCCCN)NC(=O)[C@H](CC(=O)O)NC(=O)[C@H](Cc1c[nH]cn1)NC(=O)[C@H](CC(C)C)NC(=O)[C@H](CC(C)C)NC(=O)[C@H](CCC(N)=O)NC(=O)[C@H](Cc1c[nH]cn1)NC(=O)[C@H](CCC(=O)O)NC(=O)[C@H](CO)NC(=O)[C@@H](NC(=O)[C@H](C)N)C(C)C)C(=O)N[C@@H](CCC(=O)O)C(=O)N[C@@H](CCCNC(=N)N)C(=O)N[C@H](C(=O)N[C@@H](CCC(=O)O)C(=O)N[C@@H](Cc1c[nH]c2ccccc12)C(=O)N[C@@H](CC(C)C)C(=O)N[C@@H](CCCNC(=N)N)C(=O)N[C@@H](CCCCN)C(=O)N[C@@H](CCCCN)C(=O)N[C@@H](CC(C)C)C(=O)N[C@@H](CCC(N)=O)C(=O)N[C@@H](CC(=O)O)C(=O)N[C@H](C(=O)N[C@@H](Cc1c[nH]cn1)C(=O)N[C@@H](CC(N)=O)C(=O)N[C@@H](Cc1ccccc1)C(=O)N[C@@H](CCCCNC(=O)c1ccc2c(c1)C1(OC2=O)c2ccc(N(C)C)cc2Oc2cc(N(C)C)ccc21)C(N)=O)C(C)C)C(C)C	PTH1R	cAMP formation, agonist, GloSensor	HEK293 GP2.3	15 min	0.00039 ± 0.0001
CC(C)C[C@H](NC(=O)[C@@H](Cc1c[nH]c2ccccc12)NC(=O)[C@H](Cc1ccc(O)cc1)NC(=O)[C@H](CO)NC(=O)[C@H](Cc1c[nH]c2ccccc12)NC(=O)[C@H](Cc1c[nH]cn1)NC(=O)[C@@H]1CCC(=O)N1)C(=O)N[C@@H](CCCNC(=N)N)C(=O)N1CCC[C@H]1C(=O)NCC(N)=O	Gonadotropin-releasing hormone receptor (Rattus norvegicus, UniProt P30969)	inositol phosphate accumulation, agonist	WPE-1-NB26-3 expressing Gonadotropin-releasing hormone receptor	60 min, 37 °C, together with: 10 mM LiCl	0.0002 ± 3e-05
C=CCc1cccc(CNc2nc3ccccc3n2CCC)c1O	Retinaldehyde dehydrogenase 3 (ALDH1A3, Homo sapiens, UniProt P47895)	enzyme activity		pH 7.5, 25 °C, together with: propionaldehyde 100 µM, NAD+ 200 µM	0.64 ± 0.16
CN(C)CCCC[C@H](NC(=O)[C@H](Cc1ccccc1)NC(=O)[C@@H](N)CO)C(=O)N[C@@H](CC(N)=O)C(N)=O	NPSR1 N107I	calcium signal, agonist, fluorescence			0.0435
NC(=O)[C@@H]1CCCN1C(=O)[C@H](Cc1cn(Cc2ccccc2)cn1)NC(=O)c1nccnc1N	Thyrotropin-releasing hormone receptor (Mus musculus, UniProt P21761)	calcium signal, agonist, fluorescence			0.058
C/C=C(/C)C(=O)O	FFAR3	agonist			> 10000
CCOc1ccccc1-c1nnc2n1N=C(c1ccc(NC(=O)C(C)C)cc1)CS2	C-X-C chemokine receptor type 4 (CXCR4, Homo sapiens, UniProt P61073)	β-arrestin recruitment, agonist			> 10
C=C(C)C(=O)O	FFAR3	agonist			269
C=C1CC[C@H](OCCCNC(=O)CCOCCOCCOCCOCCOCCOCCOCCOCCOCCOCCOCCOCCOCCOCCOCCOCCOCCOCCOCCOCCOCCOCCOCCOCCOCCOCCOCCOCCOCCOCCOCCOCCOCCOCCOCCOCCNC(=O)CCN2C(=O)CC(SC[C@H](NC(=O)[C@H](Cc3ccccc3)NC(=O)[C@H](CC(N)=O)NC(=O)[C@H](Cc3c[nH]cn3)NC(=O)[C@@H](NC(=O)[C@H](CC(=O)O)NC(=O)[C@H](CCC(N)=O)NC(=O)[C@H](CC(C)C)NC(=O)[C@H](CCCCN)NC(=O)[C@H](CCCCN)NC(=O)[C@H](CCCNC(=N)N)NC(=O)[C@H](CC(C)C)NC(=O)[C@H](Cc3c[nH]c4ccccc34)NC(=O)[C@H](CCC(=O)O)NC(=O)[C@@H](NC(=O)[C@H](CCCNC(=N)N)NC(=O)[C@H](CCC(=O)O)NC(=O)[C@H](CCSC)NC(=O)[C@H](CO)NC(=O)[C@H](CC(N)=O)NC(=O)[C@H](CC(C)C)NC(=O)[C@H](Cc3c[nH]cn3)NC(=O)[C@H](CCCCN)NC(=O)CNC(=O)[C@H](CC(C)C)NC(=O)[C@H](CC(N)=O)NC(=O)[C@H](Cc3c[nH]cn3)NC(=O)[C@H](CCSC)NC(=O)[C@H](CC(C)C)NC(=O)[C@H](CCC(N)=O)NC(=O)[C@@H](NC(=O)[C@H](CCC(=O)O)NC(=O)[C@H](CO)NC(=O)[C@@H](NC(=O)[C@@H](N)CO)C(C)C)[C@@H](C)CC)C(C)C)C(C)C)C(=O)O)C2=O)C/C1=C/C=C1\CCC[C@]2(C)[C@@H]([C@H](C)CCCC(C)(C)O)CC[C@@H]12 (some centres unmarked)	PTH1R	calcium signal, agonist, fluorescence			0.0237
O=C(O)/C=C/c1cccc(NC(=O)c2cc(-c3cccc(F)c3)ccc2F)c1	Prostacyclin receptor (PTGIR, Homo sapiens, UniProt P43119)	calcium signal, agonist, fluorescence			> 10
CC[C@H](C)[C@H](NC(=O)[C@H](CCC(N)=O)NC(=O)[C@H](Cc1c[nH]cn1)NC(=O)[C@H](C)NC(=O)[C@H](CC(C)C)NC(=O)[C@H](CCCCN)NC(=O)[C@H](CCC(N)=O)NC(=O)[C@@H](NC(=O)[C@@H](NC(=O)[C@@H]1CSSC[C@H](NC(=O)CNC(=O)[C@H](Cc2ccccc2)NC(=O)[C@H](CO)NC(=O)[C@H](CCCNC(=N)N)NC(=O)[C@H](CC(C)C)NC(=O)CNC(=O)[C@H](CCC(N)=O)NC(=O)[C@H](Cc2ccccc2)NC(=O)[C@H](CC(N)=O)NC(=O)[C@H](CC(N)=O)NC(=O)[C@H](CCSC)NC(=O)[C@H](CO)NC(=O)[C@H](CCC(N)=O)NC(=O)[C@H](CCCNC(=N)N)NC(=O)[C@@H](N)Cc2ccc(O)cc2)C(=O)N[C@@H](CCCNC(=N)N)C(=O)N[C@@H](Cc2ccccc2)C(=O)NCC(=O)N[C@@H]([C@@H](C)O)C(=O)N1)[C@@H](C)O)C(C)C)C(=O)N[C@@H](Cc1ccc(O)cc1)C(=O)N[C@@H](CCC(N)=O)C(=O)N[C@@H](Cc1ccccc1)C(=O)N[C@H](C(=O)N[C@@H](CC(=O)O)C(=O)N[C@@H](CCCCN)C(=O)N[C@@H](CC(=O)O)C(=O)N[C@@H](CCCCN)C(=O)N[C@@H](CC(=O)O)C(=O)N[C@@H](CC(N)=O)C(=O)N[C@H](C(=O)N[C@@H](C)C(=O)N1CCC[C@H]1C(=O)N[C@@H](CCCNC(=N)N)C(=O)N[C@@H](CO)C(=O)N[C@@H](CCCCN)C(=O)N[C@H](C(=O)N[C@@H](CO)C(=O)N1CCC[C@H]1C(=O)N[C@@H](CCC(N)=O)C(=O)NCC(=O)N[C@@H](Cc1ccc(O)cc1)C(N)=O)[C@@H](C)CC)C(C)C)[C@@H](C)O	Calcrl/Ramp3 (Mus musculus, UniProt Q9R1W5+Q9WUP1)	cAMP production, agonist	COS-7, transfected	15 min, 37 °C, together with: IBMX 1 mM	0.00055
CC(C)=CC(=O)O	FFAR3	agonist			229
CN(C(=O)c1ccccc1Cl)c1ccc(C(O)(C(F)(F)F)C(F)(F)F)cc1	NR1H2 ligand-binding domain	agonist		concentration not given	1.41 ± 0.02
NC(=O)C[C@H](NC(=O)[C@H](CCCCNC(=O)C(F)(F)F)NC(=O)[C@H](Cc1ccccc1)NC(=O)[C@@H](N)CO)C(N)=O	NPSR1 N107I	calcium signal, agonist, fluorescence			0.563
CC[C@H](C)[C@H](NC(=O)[C@H](CCC(=O)O)NC(=O)[C@H](CO)NC(=O)[C@@H](NC(=O)[C@@H](N)CO)C(C)C)C(=O)N[C@@H](CCC(N)=O)C(=O)N[C@@H](CC(C)C)C(=O)N[C@@H](CCSC)C(=O)N[C@@H](Cc1c[nH]cn1)C(=O)N[C@@H](CC(N)=O)C(=O)N[C@@H](CC(C)C)C(=O)NCC(=O)N[C@@H](CCCCN)C(=O)N[C@@H](Cc1c[nH]cn1)C(=O)N[C@@H](CC(C)C)C(=O)N[C@@H](CC(N)=O)C(=O)N[C@@H](CO)C(=O)N[C@@H](CCSC)C(=O)N[C@@H](CCC(=O)O)C(=O)N[C@@H](CCCNC(=N)N)C(=O)N[C@H](C(=O)N[C@@H](CCC(=O)O)C(=O)N[C@@H](Cc1c[nH]c2ccccc12)C(=O)N[C@@H](CC(C)C)C(=O)N[C@@H](CCCNC(=N)N)C(=O)N[C@@H](CCCCN)C(=O)N[C@@H](CCCCN)C(=O)N[C@@H](CC(C)C)C(=O)N[C@@H](CCC(N)=O)C(=O)N[C@@H](CC(=O)O)C(=O)N[C@H](C(=O)N[C@@H](Cc1c[nH]cn1)C(=O)N[C@@H](CC(N)=O)C(=O)N[C@@H](Cc1ccccc1)C(=O)N[C@H](C(=O)N[C@@H](C)C(=O)N[C@@H](CC(C)C)C(=O)O)C(C)C)C(C)C)C(C)C	PTH1R	cAMP, agonist			0.000263
CN(C(=O)c1cccs1)c1ccc(C(O)(C(F)(F)F)C(F)(F)F)cc1	NR1H2 ligand-binding domain	agonist		concentration not given	0.34 ± 0.02

Excerpt of the above:
SMILES	target	assay	test system	conditions	EC50 [µM]
CN(C(=O)c1cccs1)c1ccc(C(O)(C(F)(F)F)C(F)(F)F)cc1	NR1H2 ligand-binding domain	agonist		concentration not given	0.34 ± 0.02
CC[C@H](C)[C@H](NC(=O)[C@H](CCC(N)=O)NC(=O)[C@H](Cc1c[nH]cn1)NC(=O)[C@H](C)NC(=O)[C@H](CC(C)C)NC(=O)[C@H](CCCCN)NC(=O)[C@H](CCC(N)=O)NC(=O)[C@@H](NC(=O)[C@@H](NC(=O)[C@@H]1CSSC[C@H](NC(=O)CNC(=O)[C@H](Cc2ccccc2)NC(=O)[C@H](CO)NC(=O)[C@H](CCCNC(=N)N)NC(=O)[C@H](CC(C)C)NC(=O)CNC(=O)[C@H](CCC(N)=O)NC(=O)[C@H](Cc2ccccc2)NC(=O)[C@H](CC(N)=O)NC(=O)[C@H](CC(N)=O)NC(=O)[C@H](CCSC)NC(=O)[C@H](CO)NC(=O)[C@H](CCC(N)=O)NC(=O)[C@H](CCCNC(=N)N)NC(=O)[C@@H](N)Cc2ccc(O)cc2)C(=O)N[C@@H](CCCNC(=N)N)C(=O)N[C@@H](Cc2ccccc2)C(=O)NCC(=O)N[C@@H]([C@@H](C)O)C(=O)N1)[C@@H](C)O)C(C)C)C(=O)N[C@@H](Cc1ccc(O)cc1)C(=O)N[C@@H](CCC(N)=O)C(=O)N[C@@H](Cc1ccccc1)C(=O)N[C@H](C(=O)N[C@@H](CC(=O)O)C(=O)N[C@@H](CCCCN)C(=O)N[C@@H](CC(=O)O)C(=O)N[C@@H](CCCCN)C(=O)N[C@@H](CC(=O)O)C(=O)N[C@@H](CC(N)=O)C(=O)N[C@H](C(=O)N[C@@H](C)C(=O)N1CCC[C@H]1C(=O)N[C@@H](CCCNC(=N)N)C(=O)N[C@@H](CO)C(=O)N[C@@H](CCCCN)C(=O)N[C@H](C(=O)N[C@@H](CO)C(=O)N1CCC[C@H]1C(=O)N[C@@H](CCC(N)=O)C(=O)NCC(=O)N[C@@H](Cc1ccc(O)cc1)C(N)=O)[C@@H](C)CC)C(C)C)[C@@H](C)O	Calcrl/Ramp3 (Mus musculus, UniProt Q9R1W5+Q9WUP1)	cAMP production, agonist	COS-7, transfected	15 min, 37 °C, together with: IBMX 1 mM	0.00055
CC(C)C[C@H](NC(=O)[C@@H](Cc1c[nH]c2ccccc12)NC(=O)[C@H](Cc1ccc(O)cc1)NC(=O)[C@H](CO)NC(=O)[C@H](Cc1c[nH]c2ccccc12)NC(=O)[C@H](Cc1c[nH]cn1)NC(=O)[C@@H]1CCC(=O)N1)C(=O)N[C@@H](CCCNC(=N)N)C(=O)N1CCC[C@H]1C(=O)NCC(N)=O	Gonadotropin-releasing hormone receptor (Rattus norvegicus, UniProt P30969)	inositol phosphate accumulation, agonist	WPE-1-NB26-3 expressing Gonadotropin-releasing hormone receptor	60 min, 37 °C, together with: 10 mM LiCl	0.0002 ± 3e-05
